# Measurements collected from several papers.
# Protocols differ between the studies behind these lines. Several values in a cell are separate wells, animals, samples, runs or records. Numbers after ± are the reported error.
# Gria2: Glutamate receptor 2 (Gria2, Rattus norvegicus, UniProt P19491)
# UniProt P19491, sequence (whole entry, looked up): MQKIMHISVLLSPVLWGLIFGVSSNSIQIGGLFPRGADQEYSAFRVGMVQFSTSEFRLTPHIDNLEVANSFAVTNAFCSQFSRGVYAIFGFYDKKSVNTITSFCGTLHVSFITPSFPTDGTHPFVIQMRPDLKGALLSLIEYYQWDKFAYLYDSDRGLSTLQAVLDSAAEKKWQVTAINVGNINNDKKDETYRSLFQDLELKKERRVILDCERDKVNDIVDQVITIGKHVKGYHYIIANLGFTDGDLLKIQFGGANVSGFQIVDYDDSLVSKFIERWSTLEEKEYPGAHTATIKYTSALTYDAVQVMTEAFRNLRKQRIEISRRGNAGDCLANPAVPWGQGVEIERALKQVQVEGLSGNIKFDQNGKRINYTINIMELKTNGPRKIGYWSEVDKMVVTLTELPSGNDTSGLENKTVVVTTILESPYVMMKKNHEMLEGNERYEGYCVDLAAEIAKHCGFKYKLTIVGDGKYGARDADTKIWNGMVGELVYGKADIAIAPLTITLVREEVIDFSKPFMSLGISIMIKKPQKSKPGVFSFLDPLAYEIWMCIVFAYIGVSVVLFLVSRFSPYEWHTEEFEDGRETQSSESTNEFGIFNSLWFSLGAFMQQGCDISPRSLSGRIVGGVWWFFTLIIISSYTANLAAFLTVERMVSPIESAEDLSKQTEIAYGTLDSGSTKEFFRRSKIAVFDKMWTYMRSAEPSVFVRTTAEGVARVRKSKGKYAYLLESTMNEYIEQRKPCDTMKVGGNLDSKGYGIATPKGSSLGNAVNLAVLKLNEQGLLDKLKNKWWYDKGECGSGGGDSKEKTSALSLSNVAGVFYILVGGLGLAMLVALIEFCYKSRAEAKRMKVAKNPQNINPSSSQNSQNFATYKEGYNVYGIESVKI
# CASP7: Caspase-7 (CASP7, Homo sapiens, UniProt P55210)
# UniProt P55210, sequence (whole entry, looked up): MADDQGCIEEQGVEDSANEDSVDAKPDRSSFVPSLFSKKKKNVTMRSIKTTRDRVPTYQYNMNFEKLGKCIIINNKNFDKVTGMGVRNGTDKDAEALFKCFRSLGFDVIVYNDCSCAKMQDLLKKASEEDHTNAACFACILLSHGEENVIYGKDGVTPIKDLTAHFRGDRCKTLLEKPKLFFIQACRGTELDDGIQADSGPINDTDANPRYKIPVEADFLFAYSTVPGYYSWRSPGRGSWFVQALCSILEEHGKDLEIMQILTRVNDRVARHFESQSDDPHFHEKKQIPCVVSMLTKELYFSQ
# CNR2: Cannabinoid receptor 2 (CNR2, Homo sapiens, UniProt P34972)
# UniProt P34972, sequence (whole entry, looked up): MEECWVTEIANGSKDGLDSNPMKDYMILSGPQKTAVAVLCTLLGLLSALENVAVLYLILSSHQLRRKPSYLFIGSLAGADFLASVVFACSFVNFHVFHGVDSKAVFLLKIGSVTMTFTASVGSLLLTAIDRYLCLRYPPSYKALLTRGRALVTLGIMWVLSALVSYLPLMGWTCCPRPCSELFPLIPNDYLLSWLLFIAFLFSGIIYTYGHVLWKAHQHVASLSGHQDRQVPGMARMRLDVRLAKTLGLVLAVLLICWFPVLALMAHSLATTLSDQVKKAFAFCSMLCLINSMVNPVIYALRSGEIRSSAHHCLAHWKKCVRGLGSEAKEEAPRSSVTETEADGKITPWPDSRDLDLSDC
# T1: riboswitch RNA C41G (Bacillus); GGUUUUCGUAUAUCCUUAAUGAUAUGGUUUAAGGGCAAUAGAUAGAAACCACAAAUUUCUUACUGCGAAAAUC
# T2: G-quadruplex DNA, G-quadruplex (Homo sapiens); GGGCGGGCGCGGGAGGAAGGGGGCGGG
# UniProt P30531, sequence (whole entry, looked up): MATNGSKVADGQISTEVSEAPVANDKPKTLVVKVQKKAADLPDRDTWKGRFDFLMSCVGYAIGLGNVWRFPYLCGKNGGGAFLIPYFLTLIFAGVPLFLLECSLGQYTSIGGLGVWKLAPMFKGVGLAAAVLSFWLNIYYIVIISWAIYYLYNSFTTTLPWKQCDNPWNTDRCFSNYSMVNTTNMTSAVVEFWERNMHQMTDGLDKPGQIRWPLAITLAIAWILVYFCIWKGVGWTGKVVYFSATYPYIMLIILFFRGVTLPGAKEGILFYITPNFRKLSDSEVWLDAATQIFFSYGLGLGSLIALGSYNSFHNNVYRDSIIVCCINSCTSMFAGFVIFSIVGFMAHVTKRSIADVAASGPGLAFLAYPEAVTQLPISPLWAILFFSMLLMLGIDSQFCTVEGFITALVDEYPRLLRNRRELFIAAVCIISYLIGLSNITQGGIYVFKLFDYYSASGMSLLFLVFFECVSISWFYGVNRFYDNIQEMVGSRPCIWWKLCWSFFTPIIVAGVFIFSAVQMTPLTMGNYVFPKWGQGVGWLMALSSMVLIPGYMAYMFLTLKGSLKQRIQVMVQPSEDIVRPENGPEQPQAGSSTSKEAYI
# UniProt P46089, sequence (whole entry, looked up): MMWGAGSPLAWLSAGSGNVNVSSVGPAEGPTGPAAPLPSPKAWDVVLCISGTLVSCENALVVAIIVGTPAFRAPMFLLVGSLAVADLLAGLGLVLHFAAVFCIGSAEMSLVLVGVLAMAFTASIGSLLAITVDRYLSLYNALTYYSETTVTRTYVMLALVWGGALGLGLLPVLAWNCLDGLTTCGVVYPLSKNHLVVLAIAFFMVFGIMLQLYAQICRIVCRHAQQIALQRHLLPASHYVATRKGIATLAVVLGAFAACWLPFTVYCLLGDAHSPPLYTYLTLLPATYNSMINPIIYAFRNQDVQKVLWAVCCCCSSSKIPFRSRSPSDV
# UniProt P45983, sequence (whole entry, looked up): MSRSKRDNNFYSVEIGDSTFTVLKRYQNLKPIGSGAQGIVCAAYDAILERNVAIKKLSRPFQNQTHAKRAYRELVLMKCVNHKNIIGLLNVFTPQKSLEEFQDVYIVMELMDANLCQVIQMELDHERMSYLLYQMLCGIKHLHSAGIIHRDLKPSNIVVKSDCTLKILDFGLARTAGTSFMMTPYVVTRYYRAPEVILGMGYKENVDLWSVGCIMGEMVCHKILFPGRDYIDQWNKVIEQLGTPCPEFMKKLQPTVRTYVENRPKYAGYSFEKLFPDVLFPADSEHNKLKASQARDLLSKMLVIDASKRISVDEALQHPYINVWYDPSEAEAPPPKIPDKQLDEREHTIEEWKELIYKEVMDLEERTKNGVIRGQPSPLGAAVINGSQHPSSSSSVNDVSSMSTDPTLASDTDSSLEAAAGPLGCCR
# UniProt Q9Y2U5, sequence (whole entry, looked up): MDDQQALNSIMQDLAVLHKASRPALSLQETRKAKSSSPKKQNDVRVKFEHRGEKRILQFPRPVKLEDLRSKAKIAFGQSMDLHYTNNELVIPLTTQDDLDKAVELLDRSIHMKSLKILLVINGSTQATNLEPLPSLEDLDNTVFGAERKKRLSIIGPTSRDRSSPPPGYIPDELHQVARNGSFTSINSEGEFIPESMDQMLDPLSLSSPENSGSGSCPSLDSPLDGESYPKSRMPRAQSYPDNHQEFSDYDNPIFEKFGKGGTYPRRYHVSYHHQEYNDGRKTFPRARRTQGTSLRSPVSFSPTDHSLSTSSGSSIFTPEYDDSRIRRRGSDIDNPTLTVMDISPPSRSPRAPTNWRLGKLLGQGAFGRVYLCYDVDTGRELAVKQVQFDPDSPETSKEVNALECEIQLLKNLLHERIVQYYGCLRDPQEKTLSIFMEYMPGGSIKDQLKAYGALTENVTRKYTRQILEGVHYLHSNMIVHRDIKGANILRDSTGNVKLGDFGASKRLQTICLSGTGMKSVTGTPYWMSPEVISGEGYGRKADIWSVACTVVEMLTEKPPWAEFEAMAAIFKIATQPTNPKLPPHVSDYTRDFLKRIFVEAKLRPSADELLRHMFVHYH
# UniProt Q9UKP6, sequence (whole entry, unmodified, looked up): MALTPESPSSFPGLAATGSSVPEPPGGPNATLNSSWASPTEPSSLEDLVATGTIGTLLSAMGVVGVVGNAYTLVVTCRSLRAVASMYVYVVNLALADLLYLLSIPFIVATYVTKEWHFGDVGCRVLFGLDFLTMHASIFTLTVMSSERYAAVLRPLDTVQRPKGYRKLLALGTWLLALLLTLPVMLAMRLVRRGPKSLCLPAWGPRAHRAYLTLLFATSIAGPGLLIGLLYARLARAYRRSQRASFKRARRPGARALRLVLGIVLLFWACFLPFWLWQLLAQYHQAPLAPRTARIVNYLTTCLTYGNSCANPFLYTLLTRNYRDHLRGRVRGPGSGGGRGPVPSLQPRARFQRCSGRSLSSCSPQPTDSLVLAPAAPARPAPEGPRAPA
# UniProt Q6UB35, sequence (whole entry, looked up): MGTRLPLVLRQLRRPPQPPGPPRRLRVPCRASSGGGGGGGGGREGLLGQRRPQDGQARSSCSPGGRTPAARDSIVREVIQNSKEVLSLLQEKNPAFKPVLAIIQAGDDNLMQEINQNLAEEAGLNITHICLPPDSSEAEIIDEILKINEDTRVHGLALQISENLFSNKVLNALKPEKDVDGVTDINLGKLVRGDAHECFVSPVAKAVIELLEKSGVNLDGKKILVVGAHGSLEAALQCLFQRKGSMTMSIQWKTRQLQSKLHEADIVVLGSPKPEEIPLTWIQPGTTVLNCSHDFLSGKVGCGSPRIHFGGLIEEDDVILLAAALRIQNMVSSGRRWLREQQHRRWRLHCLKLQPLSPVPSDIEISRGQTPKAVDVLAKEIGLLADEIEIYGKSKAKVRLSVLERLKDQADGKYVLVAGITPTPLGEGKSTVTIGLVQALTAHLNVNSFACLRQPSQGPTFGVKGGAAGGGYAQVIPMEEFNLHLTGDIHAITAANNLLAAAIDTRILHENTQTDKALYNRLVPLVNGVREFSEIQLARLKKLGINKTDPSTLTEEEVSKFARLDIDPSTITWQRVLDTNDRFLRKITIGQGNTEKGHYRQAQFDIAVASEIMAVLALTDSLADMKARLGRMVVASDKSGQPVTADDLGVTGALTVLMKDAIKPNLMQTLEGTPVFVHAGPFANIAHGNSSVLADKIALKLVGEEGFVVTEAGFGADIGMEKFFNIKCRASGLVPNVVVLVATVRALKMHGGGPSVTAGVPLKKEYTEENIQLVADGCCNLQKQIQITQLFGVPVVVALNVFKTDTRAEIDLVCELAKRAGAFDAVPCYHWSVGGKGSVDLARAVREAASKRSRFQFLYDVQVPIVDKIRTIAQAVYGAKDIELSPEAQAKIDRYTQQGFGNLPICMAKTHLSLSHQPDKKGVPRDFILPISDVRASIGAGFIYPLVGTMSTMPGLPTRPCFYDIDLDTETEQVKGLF
Compound,target,test,test system,conditions,how to read,measurement,result
O=C1c2sc(-c3ccc(N4CCC(F)C4)nc3F)nc2CCN1c1cccnc1 (centres unmarked),"TAR DNA-binding protein 43, aggregated (TARDBP, Homo sapiens, UniProt Q13148)",radioligand binding,control brain sarkosyl-insoluble extract,13.55 nM,,specific binding,2 pM
Nc1ccc(CNC(=O)c2cc(-c3ccccc3)n(-c3ccccc3)n2)cc1,"Genome polyprotein, NS2B-NS3 protease (dengue virus type 2, UniProt P29990)",reporter gene,HeLa,12.5 µM,,inhibition,19%
O=C(O)Cc1cc2c(cc1C(=O)c1ccccc1I)OCO2,Gria2,"glutamate-evoked current, whole-cell patch clamp",HEK-293T,concentration not given,baseline: glutamate alone,current amplitude ratio,2.64 ± 0.1
Nc1nc2c(ncn2[C@H]2C[C@H](O)[C@@H](CO)O2)c(=O)[nH]1,"T1, riboswitch RNA C41G (Bacillus)",ITC,,"KCl 50 mM, weaker than WT, read off a plot",,Kd,6.4 µM
CC(=O)NCCCC[C@H](NC(C)=O)C(=O)N[C@@H](CCCC(=O)O)C(=O)N[C@@H](C)C(=O)N[C@@H](CC(=O)O)C(=O)COC(=O)c1c(C)cccc1C,CASP7,"enzyme activity, inhibitor",,,,kinact/KI,3000 M⁻¹ s⁻¹
COc1ccc(C(OCCN2CCCC(C(=O)O)C2)(c2ccc(OC)cc2)c2ccc(OC)cc2)cc1 (centres unmarked),"SLC6A1 (Homo sapiens, UniProt P30531)","GABA transport, inhibitor, radioligand uptake",HEK293F transfected,"32 nM, 15 min pre, 45 min uptake, room temperature, with: [3H]-GABA 30 nM, GABA 25 µM",higher = more uptake,[3H]-GABA uptake,1290 a.u. and 1680 a.u. and 1150 a.u. and 5380 a.u. and 1140 a.u. and 4360 a.u. and 1270 a.u.
CC(=O)N[C@@H](Cc1c[nH]c2ccccc12)C(=O)N[C@@H](CCCNC(=N)N)C(=O)N[C@@H](CO)C(=O)N[C@@H](CC(=O)O)C(=O)COC(=O)c1c(C)cccc1C,CASP7,"enzyme activity, inhibitor",,,,kinact/KI,300 M⁻¹ s⁻¹
COC(=O)Cc1cc2c(cc1C(=O)c1ccccc1I)OCO2,Gria2,"glutamate-evoked current, whole-cell patch clamp",HEK-293T,"concentration not given, pH 7.4, holding potential -60 mV, with: 10 mM glutamate",,current amplitude,851 ± 71 pA
N#CN1CC[C@H](C(=O)Nc2nc3c(s2)CN(C(=O)Cn2cc(CNC(=O)CCCC[C@@H]4SC[C@@H]5NC(=O)N[C@@H]54)nn2)CC3)C1,"USP7 (Homo sapiens, UniProt Q93009)","probe binding, affinity probe, neutravidin pull-down LC-MS/MS","HEK293T, cell lysate","5 µM, 1 h, mean of three replicates, unit not given",higher = more pulled down,iBAQ abundance,1.06e+07
COC(=O)[C@@]1(C)C=C(C(=O)Nc2cccc(C(=O)Nc3ccc(Nc4nccc(-c5cccnc5)n4)c(C)c3)c2)C(=O)CC1,"MAPK8 (Homo sapiens, UniProt P45983)","enzyme activity, inhibitor, radiometric",,1 µM,,remaining activity,2%
Cc1cc(C(=O)Nc2nc3cccc(C)c3n2[C@H]2CCCCN(C(=O)/C=C/CN(C)C)C2)ccn1,"CDC2-like kinase 1 (Trypanosoma brucei brucei, UniProt Q382U0)",ADP-Glo,,0.01953 µM,,kinase activity,91.7%
CCCCCC(O)/C=C/C=O (centres unmarked),"Fatty acid synthase (FASN, Homo sapiens, UniProt P49327)",competitive isoTOP-ABPP,Ramos soluble proteome,"100 µM, with: iodoacetamide probe","baseline: DMSO over compound-treated, higher = stronger cysteine blockade",isoTOP-ABPP competition ratio,2.5
O=c1[nH]cnc2c(CNC(CO)COP(=O)(O)O)c[nH]c12 (centres unmarked),"Hypoxanthine-guanine phosphoribosyltransferase (Trypanosoma cruzi, UniProt Q4DGA3)","inhibitor, inhibition pattern versus hypoxanthine",,"pH 8.3, 37 °C, with: PRPP 1 mM fixed",,Kii,910 nM
CN(C)c1ccc(C2=C/C(=C/C=C/c3sc4ccccc4[n+]3C)c3ccccc3O2)cc1,"T2, G-quadruplex DNA, G-quadruplex (Homo sapiens)",fluorescence turn-on,,,,binding,binds
CCN1CCN(Cc2ccc(C(=O)Nc3ccc(C)c(NCc4cnc5[nH]ccc5c4OC)c3)cc2C(F)(F)F)CC1,"Tyrosine-protein kinase ABL1, phosphorylated (ABL1, Homo sapiens, UniProt P00519, M351T)","binding, competition with immobilised ligand",,1 µM,,remaining binding,0.4%
Cc1ccc(-c2n[nH]cc2CNC(=O)C2(C#N)CC2)cc1,human kinase panel,"binding, KINOMEscan",,"10000 nM, %Ctrl below 1",,number of kinases hit,0
CC(C)[C@H](NC(=O)[C@@H]1CSSC(C)(C)[C@H](NC(=O)[C@@H](N)CC(=O)O)C(=O)N[C@@H](Cc2ccccc2)C(=O)N[C@@H](Cc2c[nH]c3ccccc23)C(=O)N[C@@H](CCCCN)C(=O)N[C@@H](Cc2ccc(O)cc2)C(=O)N1)C(=O)O,"UTS2R (Homo sapiens, UniProt Q9UKP6, F127A)","IP1 accumulation, agonist, IP1 HTRF",HEK293T,,baseline: wild-type receptor,span,137 ± 12%
Cc1ccc(-c2c[nH]nc2C(=O)Nc2cccnc2)c(C)c1,human kinase panel,"binding, KINOMEscan",,"10000 nM, %Ctrl below 1",,number of kinases hit,0
O=C(NO)c1ccc(Cn2c3c(c4cc(Br)ccc42)SC(c2ccccc2)C3)s1 (racemic),"Histone deacetylase 8 (Schistosoma mansoni, UniProt A5H660)",X-ray crystallography,,"ligand-Lys20 side chain, chain B, BR1-CD",,interatomic distance,3.95 Å
Nc1nc2[nH]c(=O)cnc2c(=O)[nH]1,"lumazine dehydrogenase, Cupriavidus sp. LA-1",,,pH 7.5,,Km,18.3 ± 1.6 µM
CC(=O)N[C@H](CCc1ccccc1)C(=O)N[C@@H](CCCC(=O)O)C(=O)N1C[C@H](O)C[C@H]1C(=O)N[C@@H](CC(=O)O)C(=O)COC(=O)c1c(C)cccc1C,CASP7,"enzyme activity, inhibitor",,,,kinact/KI,300 M⁻¹ s⁻¹
CCCCCCCCCCCCC/C=C/C=O,"MTHFD1L (Homo sapiens, UniProt Q6UB35)",competitive isoTOP-ABPP,"proteome, soluble, MDA-MB-231","100 µM, with: iodoacetamide probe","baseline: DMSO over compound-treated, higher = stronger cysteine blockade",isoTOP-ABPP competition ratio,1
CC(=O)N[C@@H](Cc1ccccc1Cl)C(=O)N[C@@H](CCC(=O)O)C(=O)N[C@@H](C)C(=O)N[C@@H](CC(=O)O)C(=O)COC(=O)c1c(C)cccc1C,CASP7,"enzyme activity, inhibitor",,,,kinact/KI,58400 M⁻¹ s⁻¹
CC(C)[C@@H]1NC(=O)[C@H](Cc2ccccc2)NC(=O)CSC[C@@H](C(N)=O)NC(=O)[C@H](CCC(=O)O)NC(=O)[C@H](CO)NC(=O)[C@H](Cc2c[nH]c3cccc(Cl)c23)NC(=O)[C@H](C2CCCCC2)NC(=O)[C@H](C(C)C)NC(=O)[C@H](Cc2ccc(O)cc2)NC(=O)[C@H](CC(=O)O)NC(=O)[C@H](Cc2c[nH]c3ccccc23)NC(=O)[C@H](Cc2ccc(N)nc2)NC(=O)[C@H](Cc2c[nH]c3ccc(Cl)cc23)NC(=O)[C@H](CCC(=O)O)NC1=O,"Interleukin-1 receptor-like 2 (IL1RL2, Homo sapiens, UniProt Q9HB29)","SEAP reporter gene, antagonist",HEK-Blue IL-36R cells,"100 µM, 6 h, with: IL-36 3 ng/mL",baseline: untreated,remaining activity,4.1%
CC(C)Oc1cc(Cl)ccc1CNc1cc(-c2ccccc2)nc2ncnn12,"GPR3 (Homo sapiens, UniProt P46089)",cAMP reporter,human cells,100 pM,higher is more cAMP,cAMP luminescence,33300 a.u. and 17900 a.u. and 23700 a.u. and 50400 a.u. and 42100 a.u. and 61200 a.u. and 30400 a.u. and 51900 a.u.
CCOC(=O)C(CC)(CCCSCCOCCOCCOCCNc1ccc([N+](=O)[O-])c2nonc12)NC(=O)c1ccc(C2CC2)c(Cc2ccc(F)cc2)n1 (centres unmarked),CNR2,radioligand binding,,,baseline: CB1 over CB2 (human),Ki ratio,17
Cc1ccc(-n2ncc3cc(NC(=O)C4CC4)ccc32)cc1,human kinase panel,"binding, KINOMEscan",,"10000 nM, %Ctrl below 1",,number of kinases hit,0
CCOC(=O)C(CC)(CCCOC)NC(=O)c1ccc(C2CC2)c(Cc2ccc(F)cc2)n1 (centres unmarked),CNR2,radioligand binding,,,baseline: CB1 over CB2 (human),Ki ratio,4
Cc1cc(NC(=O)[C@H](O)c2cc(F)cc(F)c2)ccc1-c1cnc(N)c(C(=O)NC(C)C)c1,"MAP3K2 (Homo sapiens, UniProt Q9Y2U5)","binding, competition with immobilised ligand",,10 µM,,remaining binding,14%

# A few entries again:
Compound,target,test,test system,conditions,how to read,measurement,result
CC(C)Oc1cc(Cl)ccc1CNc1cc(-c2ccccc2)nc2ncnn12,"GPR3 (Homo sapiens, UniProt P46089)",cAMP reporter,human cells,100 pM,higher is more cAMP,cAMP luminescence,33300 a.u. and 17900 a.u. and 23700 a.u. and 50400 a.u. and 42100 a.u. and 61200 a.u. and 30400 a.u. and 51900 a.u.
CCOC(=O)C(CC)(CCCSCCOCCOCCOCCNc1ccc([N+](=O)[O-])c2nonc12)NC(=O)c1ccc(C2CC2)c(Cc2ccc(F)cc2)n1 (centres unmarked),CNR2,radioligand binding,,,baseline: CB1 over CB2 (human),Ki ratio,17
Cc1ccc(-n2ncc3cc(NC(=O)C4CC4)ccc32)cc1,human kinase panel,"binding, KINOMEscan",,"10000 nM, %Ctrl below 1",,number of kinases hit,0
CCOC(=O)C(CC)(CCCOC)NC(=O)c1ccc(C2CC2)c(Cc2ccc(F)cc2)n1 (centres unmarked),CNR2,radioligand binding,,,baseline: CB1 over CB2 (human),Ki ratio,4
